Measurements collected from several papers.
Every numbered part comes from another study and shows a few of its results, in no order. Substitutions count along the parent as printed.

Study 1
Target: POU domain, class 5, transcription factor 1, POU domain (Pou5f1, Mus musculus, UniProt P20263, residues 131-289)
Sequence of UniProt P20263 (131-289, looked up): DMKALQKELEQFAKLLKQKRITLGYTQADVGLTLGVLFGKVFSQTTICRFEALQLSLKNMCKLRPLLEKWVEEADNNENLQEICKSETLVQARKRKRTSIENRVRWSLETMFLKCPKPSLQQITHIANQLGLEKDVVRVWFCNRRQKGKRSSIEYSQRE
Technique: Spec-seq
Molecule type: double-stranded DNA, one strand shown
Sample: in vitro
Tested at: not given
Setting: whole probe, mean of replicates
Baseline: not given
Reading: lower = stronger binding
Shared flanks, not repeated: GAGTCGTCTCGTCAGCAC … CCGTAGAGCACTCAGGTC
Under “relative binding energy”, `ATGCCCCA` is recorded as 0.661 ln ratio.
`ATGCGGAG` — result for “relative binding energy”: 0.437 ln ratio.
`ATGCGTAG` — result for “relative binding energy”: 0.189 ln ratio.
Under “relative binding energy”, `ATAACCAT` is recorded as -0.214 ln ratio.
`GGTATAAT` — result for “relative binding energy”: 0.427 ln ratio.
`TTGCTAAT`: “relative binding energy” -1.56 ln ratio.
`GGTTTAAT` — result for “relative binding energy”: 0.734 ln ratio.
Under “relative binding energy”, `ATAGGAAT` is recorded as 0.22 ln ratio.
Under “relative binding energy”, `ATTAAGAT` is recorded as 0.102 ln ratio.
`TTTTTAAT` — result for “relative binding energy”: 0.00995 ln ratio.
For `ATTGTTAT`, “relative binding energy” read 0.367 ln ratio.
`ATCATCAT` — result for “relative binding energy”: -0.155 ln ratio.
For `ATCCCTAT`, “relative binding energy” read 0.543 ln ratio.
For `CAACTAAT`, “relative binding energy” read 0.618 ln ratio.
Under “relative binding energy”, `CTCATAAT` is recorded as 0.353 ln ratio.
Under “relative binding energy”, `GCGATAAT` is recorded as 0.56 ln ratio.
`ATGCTATG`: “relative binding energy” 0.412 ln ratio.
Under “relative binding energy”, `ATGCAGAT` is recorded as -1.21 ln ratio.
Under “relative binding energy”, `CGTATAAT` is recorded as 0.447 ln ratio.
`ATGCCGAC`: “relative binding energy” 0.791 ln ratio.

Study 2
Target: CCND3, cyclin fold, Cln2 fusion (human)
Technique: yeast growth competition, sequencing
Sample: yeast
Setting: weak parent motif
Baseline: not given
Reading: higher = stronger binding
Starting sequence: E2F1 docking peptide (human); PPVKRRLDLETDH; partner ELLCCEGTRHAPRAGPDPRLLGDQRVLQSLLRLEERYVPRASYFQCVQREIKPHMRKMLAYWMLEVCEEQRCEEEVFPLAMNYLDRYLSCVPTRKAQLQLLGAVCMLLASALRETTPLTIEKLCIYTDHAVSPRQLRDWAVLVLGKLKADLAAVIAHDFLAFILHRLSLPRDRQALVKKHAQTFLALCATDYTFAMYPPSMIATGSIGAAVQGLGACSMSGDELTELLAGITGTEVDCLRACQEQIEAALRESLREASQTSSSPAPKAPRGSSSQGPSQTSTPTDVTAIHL
For `PPRKRRLDLETDH [V3R]`, “normalised enrichment score” read 0.178.
`GPVKRRLDLETDH [P1G]`: “normalised enrichment score” 0.106.
Under “normalised enrichment score”, `PPVKRRLDLVTDH [E10V]` is recorded as 0.143.
`PPVKRILDLETDH [R6I]`: “normalised enrichment score” 0.113.
`PPVKRRLDLETTH [D12T]` — result for “normalised enrichment score”: 0.0767.
`PPVKRRLDLEWDH [T11W]`: “normalised enrichment score” 0.181.
Under “normalised enrichment score”, `PPVKRGLDLETDH [R6G]` is recorded as 0.0856.
For `PPVKRRLDLELDH [T11L]`, “normalised enrichment score” read 0.152.
For `PPVKRRLMLETDH [D8M]`, “normalised enrichment score” read 0.125.
`PPVTRRLDLETDH [K4T]`: “normalised enrichment score” -0.00854.
`PPIKRRLDLETDH [V3I]` — result for “normalised enrichment score”: 0.107.
Under “normalised enrichment score”, `PPVKRRLDLEFDH [T11F]` is recorded as 0.158.
Under “normalised enrichment score”, `PPVKRRLDLMTDH [E10M]` is recorded as 0.0709.
`PPVKRWLDLETDH [R6W]`: “normalised enrichment score” 0.0909.
`PPVKRRLDLETAH [D12A]`: “normalised enrichment score” 0.139.
`PPVKRCLDLETDH [R6C]` — result for “normalised enrichment score”: 0.133.
`PPVKRRLSLETDH [D8S]`: “normalised enrichment score” 0.152.
Under “normalised enrichment score”, `PPVKRRLDLETDC [H13C]` is recorded as 0.125.
`APVKRRLDLETDH [P1A]` — result for “normalised enrichment score”: 0.138.
`PTVKRRLDLETDH [P2T]` — result for “normalised enrichment score”: 0.181.
For `PPDKRRLDLETDH [V3D]`, “normalised enrichment score” read 0.0652.
`PPVNRRLDLETDH [K4N]` — result for “normalised enrichment score”: 0.119.
`PPVKRRLDLSTDH [E10S]` — result for “normalised enrichment score”: 0.0805.
Under “normalised enrichment score”, `PPVKRRLDLQTDH [E10Q]` is recorded as 0.122.
Under “normalised enrichment score”, `PPVKRRLDLEGDH [T11G]` is recorded as 0.0399.

Study 3
Target: ABI1, truncated, D143A, DHFR fusion (Arabidopsis thaliana)
Technique: DHFR PCA, deep sequencing
Sample: yeast
Setting: methotrexate growth selection, single substitutions
With: (+)-ABA 4.8 µM
Baseline: wild-type fitted maximum
Reading: higher = stronger binding
Starting sequence: PYL1, truncated, DHFR fusion (Arabidopsis thaliana); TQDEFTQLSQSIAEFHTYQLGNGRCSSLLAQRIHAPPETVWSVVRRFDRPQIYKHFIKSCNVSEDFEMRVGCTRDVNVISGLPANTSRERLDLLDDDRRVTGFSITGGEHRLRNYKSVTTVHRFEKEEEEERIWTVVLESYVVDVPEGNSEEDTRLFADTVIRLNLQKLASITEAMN
`K58A`: “relative binding score” 67.8%.
`G102H`: “relative binding score” -9.67%.
Under “relative binding score”, `I52W` is recorded as 44.2%.
`M176R` — result for “relative binding score”: 64.8%.
`V143T` — result for “relative binding score”: 48.7%.
`E174F`: “relative binding score” 8.59%.
`L94E` — result for “relative binding score”: -4.81%.
`L156M`: “relative binding score” 76.7%.
For `S80E`, “relative binding score” read 0.974%.
`F56C` — result for “relative binding score”: 0.967%.
For `E125Y`, “relative binding score” read 78.3%.

Study 4
Target: TEF, bZIP domain (human)
Technique: DHFR protein complementation
Sample: yeast
Setting: single substitutions, most at no-binding floor
Baseline: wild-type JUN-FOS pair
Reading: higher = stronger binding
Starting sequence: JUN, bZIP domain (human); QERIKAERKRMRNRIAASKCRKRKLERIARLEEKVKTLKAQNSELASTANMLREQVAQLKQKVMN; partner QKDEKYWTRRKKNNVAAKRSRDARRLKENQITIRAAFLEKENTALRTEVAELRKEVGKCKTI
The binding fitness of `E44K` is reported as -1.52 natural log.
With `T37N` the binding fitness was -1.17 natural log.
With `A40M` the binding fitness was -1.49 natural log.
With `Q55T` the binding fitness was -1.46 natural log.
`K34R` gave a binding fitness of -1.44 natural log.
The binding fitness of `A40E` is reported as -1.44 natural log.
`A29M` has a binding fitness of -1.48 natural log.
With `T48G` the binding fitness was -1.49 natural log.
The binding fitness of `N42T` is reported as -1.53 natural log.
For `R30E`, the binding fitness was -1.38 natural log.
`K39A` has a binding fitness of -1.41 natural log.
For `E33T`, the binding fitness was -1.3 natural log.
`L45Y` has a binding fitness of -1.53 natural log.
